Published values collected from several papers.
Lines come from different studies, so protocols differ. Several values in a cell are separate wells, animals, samples, runs or records. ± marks the error that the study gave.
rep nsp14 methyltransferase: Replicase polyprotein 1ab, nsp14 methyltransferase (rep, Severe acute respiratory syndrome coronavirus 2, UniProt P0DTD1)
rep main protease: Replicase polyprotein 1ab, main protease (rep, Severe acute respiratory syndrome coronavirus 2, UniProt P0DTD1)
rep nsp3 macrodomain: Replicase polyprotein 1ab, nsp3 macrodomain (rep, Severe acute respiratory syndrome coronavirus 2, UniProt P0DTD1)
rep papain-like protease: Replicase polyprotein 1ab, papain-like protease (rep, Severe acute respiratory syndrome coronavirus 2, UniProt P0DTD1)

Under “lipophilic ligand efficiency”, CC1CC(c2ccc(C(=O)O)s2)=NN1c1ccc(C#N)c(Cl)c1 (stereo not drawn) is recorded as 2.9 (rep nsp14 methyltransferase).
Cn1cc(C(=O)Nc2ccccn2)c2ccccc21 has a Hill slope of 1.28 (rep main protease; protease activity, SAMDI-MS).
The remaining activity of CNC(=O)C[C@H](Cc1ccc(F)cc1)NC(=O)[C@@H](Cc1ccc(Cl)cc1Cl)NC(=O)[C@H](N)Cc1ccccc1C#N is reported as 81.5% (rep main protease; 0.0001693 µM).
For O=C(OCC(=O)c1ccc([N+](=O)[O-])cc1)/C(=C/c1ccc(Cl)cc1)NC(=O)c1ccccc1, the Vmax was 24.3 ± 2.7 RFU/s (rep main protease; enzyme activity, inhibitor; 1.5 µM).
With CNC(=O)C[C@H](Cc1ccc(F)cc1)NC(=O)[C@@H](Cc1ccc(Cl)cc1Cl)NC(=O)[C@H](N)Cc1ccccc1[N+](=O)[O-] the remaining activity was 73.4% (rep main protease; 3CL protease activity; 0.04576 µM).
CC(=O)N[C@@H](Cc1ccc(O)cc1)C(=O)N[C@@H](CC(=O)O)C(=O)N[C@H]1CCC[C@@H]1C(=O)N[C@@H](Cc1ccccc1)C(=O)N[C@@H](Cc1ccc(O)cc1)C(=O)N[C@H]1CCC[C@@H]1C(=O)N[C@@H](Cc1ccc(O)cc1)C(=O)N[C@H](C(=O)N[C@H](C(=O)N[C@@H](Cc1ccccc1)C(=O)N[C@@H](Cc1c[nH]cn1)C(=O)N[C@H](C(=O)N[C@@H](C)C(=O)N[C@H](C(N)=O)[C@@H](C)O)C(C)C)[C@@H](C)O)C(C)C has a kon of 1.26e+07 M⁻¹ s⁻¹ (rep main protease; binding, SPR; pH 7.6).
With CC(C)[C@H](NC(=O)c1ccccc1[Se][Se]c1ccccc1C(=O)N[C@H](C(=O)O)C(C)C)C(=O)O the inhibition was 102% and 105% (rep main protease; enzyme activity, inhibitor; 40 µM).
O=C(c1cccc(Br)c1)N1CCC(c2ccn3ncc(C(=O)N4CCCCC4)c3c2)CC1 — result for ADP-ribosylhydrolase inhibition: “inhibited” (rep nsp3 macrodomain; enzyme activity, inhibitor, ADPr-Glo; concentration not given, SARS-CoV-2).
The detection limit of C#Cc1cccc(CCNC(=O)[C@@H](c2cncnc2)N(C(=O)[C@H](F)Cl)c2ccc(S(F)(F)(F)(F)F)cc2)c1 is reported as 10 nM (rep main protease; protease labelling, in-gel fluorescence; lowest Mpro concentration detected).
For CCn1ccc(-c2cc(C(C)NC(=O)c3cc(N4CC5CC4CN5C)ccc3C)c3ccccc3n2)n1 (stereo not drawn), “GFP/mCherry signal ratio” read 41.1 and 10.5 and 65.9 and 19.6 and 93.7 and 88.1 (rep papain-like protease; reporter gene, cell-based).
COC(=O)Cn1[se]c2ccccc2c1=O gave an inhibition of 103% (rep main protease; enzyme activity, inhibitor; 40 µM).
The ΔTm of Cc1cccc(Cl)c1-n1sc(=O)n(CC2CC2)c1=O is reported as -18.9 ± 0.53 °C (rep nsp3 macrodomain; thermal stabilisation, differential scanning fluorimetry; 300 µM, SARS-CoV-2).
The inhibition of CC[C@@H](C)[C@@H](C(=O)OC)n1[se]c2ccccc2c1=O is reported as 103% (rep main protease; enzyme activity, inhibitor; 40 µM).
For CCc1ccccc1NC(=S)N/N=C/c1ccc(O)cc1O, the remaining activity was ~60% (rep main protease; enzyme activity, jump dilution; 122 µM, 2 h).
The koff of CC(=O)N[C@@H](Cc1ccc(O)cc1)C(=O)N[C@@H](CC(=O)O)C(=O)NCCC(=O)N[C@@H](Cc1ccccc1)C(=O)N[C@@H](Cc1ccc(O)cc1)C(=O)NCCC(=O)N[C@@H](Cc1ccc(O)cc1)C(=O)N[C@H](C(=O)N[C@H](C(=O)N[C@@H](Cc1ccccc1)C(=O)N[C@@H](Cc1c[nH]cn1)C(=O)N[C@H](C(=O)N[C@@H](C)C(=O)N[C@H](C(N)=O)[C@@H](C)O)C(C)C)[C@@H](C)O)C(C)C is reported as 0.00379 s⁻¹ (rep main protease; binding, SPR).
CC(=O)Nc1ccc(-c2cnc(N3C(=O)CSC3c3cc4ccccc4nc3Cl)s2)cc1 (stereo not drawn) has a ΔTm of -1 °C (rep main protease; thermal stability; 100 µM).
O=C(N[C@@H](Cc1ccccc1)C(=O)N[C@@H](C[C@@H]1CCNC1=O)C(O)S(=O)(=O)O)OCc1ccccc1 (stereo partly drawn) has a ΔTm of 8.28 °C (rep main protease; thermal stability, DSF).
O=C(NC1CCC(F)(F)CC1)C(c1cncnc1)N(C(=O)C(F)Cl)c1ccc(OC(F)(F)F)cc1 (stereo not drawn) has an inhibition of 5.09% (rep main protease; enzyme activity, inhibitor; 11 nM).
[N-]=[N+]=N[C@]1(COP(=O)(O)OP(=O)(O)OP(=O)(O)O)O[C@@H](n2ccc(N)nc2=O)[C@@H](F)[C@@H]1O has a Vmax of 0.94 fraction per time (Replicase polyprotein 1ab, nsp12 RdRp (rep, Severe acute respiratory syndrome coronavirus 2, UniProt P0DTD1); nucleotide incorporation, substrate).
For O=c1oc2cc(O)ccc2c2ccc(O)cc12, “binding efficiency index” read 19.1 (rep main protease).
For CNC(=O)CC[C@H](Cc1ccccc1)NC(=O)[C@@H](Cc1ccc(Cl)cc1Cl)NC(=O)[C@H](N)Cc1ccccc1[N+](=O)[O-], the remaining activity was 97.4% (rep main protease; 0.0001693 µM).
CSCC[C@@H](C=O)NC(=O)[C@H](CC(C)C)NC(=O)[C@H](CC(C)C)NC(C)=O gave a potency increase of 5 to 10 fold (rep main protease; enzyme activity, inhibitor; enzyme 3 nM vs 125 nM; reference: native 3CLpro over MBP-3CLpro).
Cc1cc(C(=O)O)ccc1C1=NN(c2ccc(C#N)c(Cl)c2)C(C)C1 (stereo not drawn) — result for “lipophilic ligand efficiency”: 2.3 (rep nsp14 methyltransferase).
For CC[C@H](NC(=O)OCc1ccccc1)C(=O)N[C@H](C(=O)N[C@@H](Cc1ccccc1)C(=O)N(C)N(C#N)Cc1ccccc1)C(C)(C)C, the kinact/KI was 128000 M⁻¹ s⁻¹ (rep main protease; enzyme activity, irreversible inhibitor; SARS-CoV-2; 37 °C, main protease).
O=C1C=CC(=O)C=C1 gave a Hill slope of 1.54 ± 0.42 (Replicase polyprotein 1ab, nsp14 N7-methyltransferase (rep, Severe acute respiratory syndrome coronavirus 2, UniProt P0DTD1); N7-methyltransferase activity, inhibitor, Py-FLINT).
With CNC(=O)C[C@H](Cc1ccncc1)NC(=O)[C@@H](Cc1cccc(Br)c1)NC(=O)[C@@H](N)Cc1ccsc1 the remaining activity was 60.2% (rep main protease; 0.5229 µM).
The Hill coefficient of O=c1c2cccc([N+](=O)[O-])c2[se]n1Cc1ccccc1 is reported as 1.44 ± 0.08 (rep main protease; FRET; SARS-CoV-2; main protease).
COc1cc2c(cc1OC)-c1c(OC)c(OC)cc3c1[C@H](C2)N(C)CC3 — result for “relative STD saturation”: 38% (rep main protease; STD NMR, refers to: proton H3–14; reference: H-8 signal).
Cc1ccc(O[C@H]2CCN(C)C2)cc1C(=O)N[C@H](C)c1cc(-c2cnn(C)c2)nc2ccccc12 — result for “GFP/mCherry signal ratio”: 71 and 62.8 and 51 and 64.1 and 16.4 (rep papain-like protease; reporter gene, cell-based).
O=C(NC1CCC(F)(F)CC1)C(c1cncnc1)N(C(=O)C(F)Cl)c1ccc(-c2cncs2)cc1 (stereo not drawn) has an inhibition of 102% (rep main protease; enzyme activity, inhibitor; 25 µM).
CC(C)=CCc1c(O)cc(O)c2c(=O)cc(-c3ccc(O)cc3)oc12 has a selectivity ratio of ~20 fold (Replicase polyprotein 1ab, nsp13 helicase (rep, Severe acute respiratory syndrome coronavirus 2, UniProt P0DTD1); inhibitor; reference: ATPase IC50 over unwinding IC50).
With O=C(NCCc1cccc(F)c1)[C@@H](c1cncnc1)N(C(=O)[C@H](F)Cl)c1ccc(S(F)(F)(F)(F)F)cc1 the kinact/KI was 4170 M⁻¹ s⁻¹ (rep main protease; enzyme activity, inhibitor).
For O=C(CCl)N1CCN(S(=O)(=O)c2cccs2)CC1, the kinact/Ki was 770 M⁻¹ s⁻¹ (rep main protease; inhibitor, biochemical).
C[C@](C(=O)NC1CCOCC1)(c1cncnc1)N(C(=O)[C@H](F)Cl)c1ccc(OC(F)(F)Cl)cc1 gave an inhibition of 17.6% (rep main protease; enzyme activity, inhibitor; 4.6 nM).
Cc1ccc(OCCN(C)C)cc1C(=O)N[C@H](C)c1cc(-c2cncs2)nc2ccccc12: “GFP/mCherry signal ratio” 33.6 and 119 and 0 and 87.2 and 72.4 and 2.85 (rep papain-like protease; reporter gene, cell-based).
CCOc1ccc(CN2CC[C@H]2C(=O)NC)cc1-c1cccc(C(=O)NC[C@@H]2COC(C)(C)O2)c1 gave a remaining activity of 111% (rep main protease; 0.5229 µM).
The Rmax of O=C(/C=C/c1ccc(O)c(O)c1)O[C@@H]1Cc2c(O)cc(O)cc2O[C@@H]1c1ccc(O)c(O)c1 is reported as 319 RU (rep main protease; surface plasmon resonance).
CNC(=O)C[C@H](Cc1ccncc1)NC(=O)[C@@H](Cc1cccc(Br)c1)NC(=O)[C@@H](N)Cc1cccc(F)c1 gave a remaining activity of 36.5% (rep main protease; 3CL protease activity; 1 µM).
CC(C)(C)[C@@H]1NC(=O)O[C@@H]2CCC[C@H]2OC/C=C/C(F)(F)c2nc3ccccc3nc2O[C@@H]2C[C@@H](C(=O)N[C@]3(C(=O)NS(=O)(=O)C4(C)CC4)C[C@H]3C(F)F)N(C2)C1=O: remaining activity “no inhibition” (rep papain-like protease; protease activity, inhibitor, fluorescence; 20 µM, 25 °C).

Excerpt of the above:
Cn1cc(C(=O)Nc2ccccn2)c2ccccc21 has a Hill slope of 1.28 (rep main protease; protease activity, SAMDI-MS).
The remaining activity of CNC(=O)C[C@H](Cc1ccc(F)cc1)NC(=O)[C@@H](Cc1ccc(Cl)cc1Cl)NC(=O)[C@H](N)Cc1ccccc1C#N is reported as 81.5% (rep main protease; 0.0001693 µM).
